Results pooled from the literature.
Numbers after ± are the reported error.

For `N[C@@H](Cc1ccc(O)cc1)C(=O)N1CCC[C@H]1C(=O)NCC(=O)NCC(=O)O`, “ΔS‡ at 298.15 K” read -74 ± 18 J/(mol·K) (diketopiperazine formation, transition state theory; 1-propanol; 70, 80, 90 °C, 0.5% acetic acid).
`O=C(O)/C=C/c1ccc(O)cc1`: “ABTS radical scavenging” 84.4 ± 1% (1000 µg/mL).
`CC[C@H](C)[C@H](NC(=O)[C@H](CCCNC(=N)N)NC(=O)[C@H](CCC(N)=O)NC(=O)[C@H](CC(=O)O)NC(=O)[C@H](CC(C)C)NC(=O)[C@H](CC(C)C)NC(=O)[C@H](CC(N)=O)NC(=O)[C@H](Cc1ccccc1)NC(=O)[C@H](CC(=O)O)NC(=O)[C@@H](NC(=O)[C@@H](NC(=O)[C@H](CC(N)=O)NC(=O)CNC(=O)[C@H](CO)NC(C)=O)C(C)C)[C@@H](C)CC)C(=O)N[C@H](C(=O)N[C@@H](Cc1c[nH]c2ccccc12)C(=O)N[C@@H](CCC(N)=O)C(=O)N[C@@H](CC(N)=O)C(=O)N[C@@H](Cc1c[nH]c2ccccc12)C(=O)N[C@@H](Cc1ccc(O)cc1)C(=O)N[C@@H](C)C(N)=O)[C@@H](C)CC`: “antigen-experienced T cells” 31.7% (measured: HA-51 tetramer; tetramer+ CD4 T cells, PBMC, healthy adults, HLA-DRB1*0101; dose not given, CD62L−CD45RA+/− or CD62L+CD45RA−).
The EC50 of `CC(C)C[C@H](NC(=O)[C@H](Cc1ccccc1)NC(=O)[C@@H](NC(=O)[C@H](Cc1c[nH]cn1)NC(=O)[C@H](CC(=O)O)NC(=O)[C@@H](NC(=O)[C@H](Cc1ccc(C(=O)c2ccccc2)cc1)NC(=O)[C@@H](NC(=O)[C@@H](N)Cc1ccc(O)cc1)[C@@H](C)O)C(C)C)C(C)C)C(=O)N[C@@H](CCCNC(=N)N)C(=O)N[C@@H](Cc1ccccc1)C(N)=O` is reported as 1e-05 µM (heart contraction rate decrease; Drosophila melanogaster white prepupae, pupal heart).
For `CCN(CCCCOc1ccc(CCC(=O)N2CCC(Cc3ccccc3)CC2)cc1OC)Cc1ccccc1`, the step-down latency was 135 s (step-down passive avoidance; scopolamine-induced amnesic mice; 2.8 mg/kg).
`CS(C)(=O)=Nc1ccc(-c2ccc(-c3nc4cc(O[C@@H]5CO[C@H]6[C@@H]5OC[C@H]6O)[nH]c4cc3F)cc2)cc1`: “change in respiratory quotient” “decreased” (indirect calorimetry; wild-type mouse; 10 mg/kg).
With `CCCCCCCOP(=O)(O)Oc1c2c(c(OP(=O)(O)OCCCCCCC)c3c1C1CC3c3cc4c(cc31)C1CC4c3ccccc31)C1CC2c2cc3c(cc21)C1CC3c2ccccc21` the EC50 was 4.4 µM (liposome dye leakage; liposomes 200 nm; 30 min, with: carboxyfluorescein 50 mM).
`Cc1ccc(/C=C/C(=O)O)cc1-c1cc2c(cc1C)C(C)(C)CCC2(C)C`: “log2 fold change” -0.91 (RNA sequencing, measured: Ccl6 mRNA; rat, brain; dose not given, 24 h, single dose; relative to: vehicle).
`CC(C)C[C@@H]1NC(=O)[C@@H](Cc2c[nH]c3ccccc23)NC(=O)[C@H](CCCNC(=N)N)NC(=O)[C@@H](CCC(=O)O)NC(=O)[C@H](CCC(N)=O)NC(=O)[C@@H](CCC(=O)O)NC(=O)[C@H](CCCNC(=N)N)NC(=O)[C@@H](Cc2c[nH]c3ccccc23)NC1=O` — result for “time to increased Bacteroidetes/Firmicutes ratio”: at most 6 weeks (16S rRNA sequencing, measured: gut microbiota; LDLr-/- mice, Western diet, feces; oral, 35 mg/kg daily; relative to: vehicle).
For `CSCCNC(=O)CCC(C)C1CCC2C3C(O)CC4CC(O)CCC4(C)C3CCC12C` (centres unmarked), mRNA level read “no effect” (measured: Slc10a2; SPF mice, small intestine; oral gavage, dose not given; relative to: vehicle).
For `CC[C@H](C)[C@H](NC(=O)[C@H](Cc1c[nH]c2ccccc12)NC(=O)[C@H](CCCNC(=N)N)NC(=O)[C@H](CCCCN)NC(=O)[C@H](CC(C)C)NC(=O)[C@H](CC(=O)O)NC(=O)[C@H](Cc1ccccc1)NC(=O)[C@H](C)NC(=O)[C@H](Cc1ccc(O)cc1)NC(=O)[C@H](CC(N)=O)NC(=O)[C@H](Cc1ccc(O)cc1)NC(=O)[C@H](CCCNC(=N)N)NC(=O)[C@H](Cc1ccc(O)cc1)NC(=O)[C@H](Cc1ccc(O)cc1)NC(=O)[C@@H](NC(=O)[C@H](CC(C)C)NC(=O)[C@H](C)NC(=O)[C@H](CC(N)=O)NC(=O)[C@H](Cc1ccc(O)cc1)NC(C)=O)[C@@H](C)CC)C(=O)N[C@@H](Cc1ccc(O)cc1)C(=O)N[C@@H](CC(C)C)C(N)=O`, “antigen-experienced T cells” read 23.1% (measured: HA-15 tetramer; tetramer+ CD4 T cells, PBMC, healthy adults, HLA-DRB1*0101; dose not given, CD62L−CD45RA+/− or CD62L+CD45RA−).
Under “ABTS radical scavenging”, `O=C(O)CCCC(=O)O` is recorded as 63.1 ± 2.1% (250 µg/mL).
The KL-6 level of `O=C(O)CCn1c(=O)oc2cc(Cl)c(Cl)cc21` is reported as 16 ± 2 ng/mL (rat, acute pancreatitis, serum; dose not given, 6 h).
For `CC(C)C[C@H](NC(=O)[C@H](CC(N)=O)NC(=O)[C@@H](NC(=O)[C@@H](NC(=O)[C@@H](N)CCCNC(=N)N)C(C)C)[C@@H](C)O)C(=O)NCC(=O)N[C@@H](CCCNC(=N)N)C(=O)N1CCC[C@H]1C(=O)O`, the NO production was 60% (Griess; RAW264.7, mouse; 1000 µg/mL, 24 h, with: heat-killed Cutibacterium acnes 100 µg/mL; relative to: no peptide control).
With `CCN(Cc1ccccc1)C(=O)CCc1nc(CN2CCN(C(=O)Cc3ccc(OC)c(OC)c3)CC2)no1` the onset day was 13 days (thermal withdrawal threshold, Hargreaves test; mouse CCI model; 5 mg/kg, dosing from day 11).
For `COC[C@@H](NC(C)=O)C(=O)NCc1ccc(OCc2cccc(Cl)c2)cc1`, the ED50 was 13 mg/kg (6 Hz seizures; mouse; intraperitoneal).
`O=P(O)(OCc1ccccc1)Oc1c2c(c(OP(=O)(O)OCc3ccccc3)c3c1C1CC3c3cc4c(cc31)C1CC4c3ccccc31)C1CC2c2cc3c(cc21)C1CC3c2ccccc21` has an EC50 of 4 µM (liposome dye leakage; liposomes 200 nm; 30 min, with: carboxyfluorescein 50 mM).
For `O=C(O)/C=C/c1cc(O)cc(O)c1`, “ABTS radical scavenging” read 49.2 ± 1.26% (62.5 µg/mL).
For `somatostatin`, “GFAP-positive glial activation” read 50% (Sprague-Dawley rat, streptozotocin-induced diabetes, retina; eye drops, 10 mg/mL, score 0).
`CC[C@H](C)[C@H](NC(=O)[C@H](CCCNC(=N)N)NC(=O)[C@H](CCCNC(=N)N)NC(=O)[C@H](CC(C)C)NC(=O)[C@H](Cc1ccccc1)NC(=O)CNC(=O)CNC(=O)[C@@H](N)Cc1ccc(O)cc1)C(=O)N[C@@H](CCCNC(=N)N)C(=O)N1CCC[C@H]1C(=O)N[C@@H](CCCCN)C(=O)N[C@@H](CC(C)C)C(=O)N[C@@H](CCCCN)C(=O)N[C@@H](Cc1c[nH]c2ccccc12)C(=O)N[C@@H](CC(=O)O)C(=O)N[C@@H](CC(N)=O)C(=O)N[C@@H](CCC(N)=O)C(=O)O` gave an EC50 of 2.1 ± 0.2 µM (C57BL/6 mouse striatal membranes).
For `CCCCCCCC/C=C\CCCCCCCCOP(O)(O)=S.N`, “dose modification factor” read 1.2 (C57BL/6 mouse; subcutaneous, 1 mg/kg, 24 h after irradiation, LD50/10 endpoint, with: 6.4-8.6 Gy total-body irradiation).
`N=C(N)NCCC[C@H](NC(=O)[C@H](Cc1c[nH]c2ccccc12)NC(=O)[C@H](CCCNC(=N)N)NC(=O)[C@H](CCCNC(=N)N)NC(=O)[C@@H]1CCCN1C(=O)[C@H](CCCCN)NC(=O)[C@@H](N)CCCNC(=N)N)C(=O)N[C@@H](Cc1c[nH]c2ccccc12)C(=O)N[C@@H](Cc1c[nH]c2ccccc12)C(=O)N1CCC[C@H]1C(=O)N[C@@H](CCCCN)C(=O)N[C@@H](CCCNC(=N)N)C(=O)N1CCC[C@H]1C(=O)O`: “ABTS radical scavenging” 72% (ABTS; 1 mg/mL).
For `CC[C@H](C)[C@H](NC(=O)[C@@H](NC(=O)[C@H](CC(=O)O)NC(C)=O)[C@@H](C)O)C(=O)N[C@@H](CCCNC(=N)N)C(=O)N[C@@H](CC(C)C)C(=O)N[C@@H](CC(C)C)C(=O)N[C@@H](Cc1ccccc1)C(=O)N[C@@H](CCC(N)=O)C(=O)N[C@@H](CC(C)C)C(=O)N[C@@H](CCSC)C(=O)N[C@@H](CCCNC(=N)N)C(=O)N1CCC[C@H]1C(=O)N1CCC[C@H]1C(=O)N[C@@H](CC(N)=O)C(=O)N[C@@H](CCSC)C(=O)N[C@H](C(=O)N1CCC[C@H]1C(=O)N[C@@H](C)C(=O)N[C@H](C(=O)N[C@@H](CC(N)=O)C(=O)N[C@@H](C)C(N)=O)C(C)C)[C@@H](C)O`, “antigen-experienced T cells” read 38.9% (measured: HA-29 tetramer; tetramer+ CD4 T cells, PBMC, healthy adults, HLA-DRB1*0101; dose not given, CD62L−CD45RA+/− or CD62L+CD45RA−).
With `CN[C@](C)(C[18F])C(=O)O` the tracer uptake was 1.5 %ID/g (A549 tumour model; host not given, muscle; 1 h, tumour-bearing).
`CC(C)C[C@H](NC(=O)[C@H](Cc1ccccc1)NC(=O)CNC(=O)CNC(=O)[C@H](Cc1ccc(O)cc1)NC(=O)OC(C)c1ccccc1[N+](=O)[O-])C(=O)O` (some centres unmarked) — result for “activation time ratio”: about 1.5 fold (GIRK current, MOR agonist; rat, locus coeruleus slices; 10 µM, with: 100 mW 355 nm light, 50 ms; relative to: compound over references).
`CCc1nnc(-c2c(OC)cc(-c3cnc4cc(-c5cnn(C)c5)ccn34)cc2OC)o1` — result for mRNA level: “increased” (RT-qPCR, measured: Spp1; male C57BL/6J mice, cortical bone; oral gavage, dose not given, 3 weeks).
